Assay results collected from several papers.
Numbered parts are unrelated; each lists some results of a single study.

Sample 1 — technique: aptamer microarray, sandwich; molecule type: DNA with 2'F-ANA; matrix: in vitro; tested at: 200 nM; added: Cy3 exosite-II aptamer, 400 nM; direction: higher = stronger binding; measurement: mean fluorescence intensity; oligonucleotide: GGTTGGTGTGGTTGG
Target: Prothrombin, mature alpha-thrombin (F2, Homo sapiens, UniProt P00734)
Notes: whole 15-mer aptamer, many near background
2'F-ANA at 1 3 7 11 13 14 15: 78.6 a.u.
2'F-ANA at 1 4 5 7 8 9 10 12 14 15: 50.2 a.u.
2'F-ANA at 2 3 4 5 6 8 11 12 13 14 15: 262 a.u.
2'F-ANA at 1 2 3 4 5 6 8 11 13 14 15: 53.2 a.u.
2'F-ANA at 2 3 4 7 8 13 15: 587 a.u.
2'F-ANA at 4 7 10 11 13 15: 70.9 a.u.
2'F-ANA at 1 4 5 8 9 11 13 14 15: 46.3 a.u.
2'F-ANA at 2 3 5 6 8 9 10 11: 53.3 a.u.
2'F-ANA at 2 3 5 9 10 11 12 13 15: 60.1 a.u.
2'F-ANA at 1 2 4 6 7 8 10 12 13 14 15: 46.2 a.u.
2'F-ANA at 7 9 11 13 14: 181 a.u.
2'F-ANA at 1 2 3 8 12 13: 441 a.u.
2'F-ANA at 1 3 4 6 7 9 10 11 12 13 14: 52.2 a.u.
2'F-ANA at 2 3 4 5 6 7 9 10 11 14 15: 52.3 a.u.
2'F-ANA at 3 7 10 11 12 13: 616 a.u.
2'F-ANA at 1 2 4 6 7 10 11 12 14 15: 46.5 a.u.
2'F-ANA at 2 4 6 9 10 11 13 14: 70 a.u.
2'F-ANA at 2 3 6 9 10 11 14: 282 a.u.

Sample 2 — technique: universal PBM; molecule type: double-stranded DNA, one strand shown; matrix: in vitro; tested at: not given; direction: higher = stronger binding; measurement: E-score
Target: Sal-like protein 4, full length isoform B (SALL4, Homo sapiens, UniProt Q9UJQ4-2, residues 1-616)
Notes: 8-mer, flanks averaged, mean of replicates
Residues (chain): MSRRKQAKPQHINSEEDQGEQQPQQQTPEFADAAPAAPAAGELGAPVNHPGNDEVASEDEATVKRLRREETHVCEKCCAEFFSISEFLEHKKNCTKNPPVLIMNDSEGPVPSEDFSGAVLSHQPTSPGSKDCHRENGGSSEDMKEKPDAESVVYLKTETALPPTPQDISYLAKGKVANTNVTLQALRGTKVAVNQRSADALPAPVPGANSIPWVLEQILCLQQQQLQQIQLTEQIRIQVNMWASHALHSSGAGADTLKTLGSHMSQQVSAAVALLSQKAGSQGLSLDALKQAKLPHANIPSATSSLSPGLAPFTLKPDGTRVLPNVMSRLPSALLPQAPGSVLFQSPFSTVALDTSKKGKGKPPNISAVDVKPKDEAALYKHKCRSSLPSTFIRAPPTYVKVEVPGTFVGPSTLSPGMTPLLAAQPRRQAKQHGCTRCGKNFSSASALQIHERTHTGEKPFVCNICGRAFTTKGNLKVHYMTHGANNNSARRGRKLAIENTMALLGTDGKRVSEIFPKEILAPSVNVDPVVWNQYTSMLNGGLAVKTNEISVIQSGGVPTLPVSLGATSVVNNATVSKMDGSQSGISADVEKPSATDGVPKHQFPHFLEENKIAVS
CAGTGCGC: -0.26
AGTTGACC: -0.205
CGAGGAAG: -0.175
CACCGTGA: -0.171
AGCGTAAC: 0.129
AACAGAAC: 0.121
ACATAGCC: -0.0532
AACTTCAA: 0.135
CTCTACTA: 0.0768
ACCACTCG: -0.159
AAGCGCTC: -0.172
AAGGAGGG: -0.192
ACGTGCGG: -0.165
GAATTATA: 0.386
GTTACCGA: -0.164
CCGAAAGG: 0.0311
CCATCCCG: -0.276
AAGAACTC: 0.0466
AAAAAGGG: 0.0856

Sample 3 — technique: RNA Bind-n-Seq; molecule type: RNA; matrix: in vitro; tested at: 200 nM; notes: whole 134-nt RNA, ends assumed; added: 150 mM LiCl; reference: input library; direction: higher = stronger binding; measurement: log2 enrichment; each molecule: 7-deaza-guanosine replaces G
Target: Ras GTPase-activating protein-binding protein 1, full length (G3BP1, Homo sapiens, UniProt Q13283)
Sequence of UniProt Q13283 (whole entry, looked up): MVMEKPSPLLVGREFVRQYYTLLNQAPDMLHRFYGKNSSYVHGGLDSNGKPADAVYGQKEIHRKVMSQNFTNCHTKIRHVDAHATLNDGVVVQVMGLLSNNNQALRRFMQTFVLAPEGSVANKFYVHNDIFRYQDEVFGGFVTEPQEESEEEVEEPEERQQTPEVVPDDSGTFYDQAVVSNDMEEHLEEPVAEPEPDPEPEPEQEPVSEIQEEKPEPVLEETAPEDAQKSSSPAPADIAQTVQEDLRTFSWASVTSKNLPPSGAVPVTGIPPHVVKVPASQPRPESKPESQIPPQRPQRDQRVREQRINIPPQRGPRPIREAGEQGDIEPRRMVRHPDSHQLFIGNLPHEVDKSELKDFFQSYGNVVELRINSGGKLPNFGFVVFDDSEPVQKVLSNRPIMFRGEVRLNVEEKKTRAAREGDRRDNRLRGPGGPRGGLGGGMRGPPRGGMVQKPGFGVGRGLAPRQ
Shared flanks, not repeated: GGGAGUUCUACAGUCCGACGAUC … UGGAAUUCUCGGGUGUCAAGG
UUGAUGCCCCAGAUGUGGAUGUUCAUGGCCCAGACUGGCACCUGAAGAUGCCUAAGAUGAAAAUGCCCAAGUUCAGCAUGCCUGGCUUCA: -0.853
UCAAGUCCUGUGCUACACAUCGUAUGUACCGAAUCGGGGCCCGGCCCGGGCCCGGAAAGUAUUAUGUUACGCCGUUCGGAUCUGCACUUC: -0.961
GUCCUGUGCUACACAUCGUAUGUACCGAAUCGGGUUUUUUUGGGAGGGUUUUUUUGGGAAAGUAUUAUGUUACGCCGUUCGGAUCUGCAC: 0.0126
GUCCUGUGCUACACAUCGUAUGUACCGAAUCAAAUUUUUUUAAAUUUUUAAAUUUAAAAAAGUAUUAUGUUACGCCGUUCGGAUCUGCAC: -2.88
UGUGCUACACAUCGUAUGUACCGAAUCGGGUUUUUUUGGGUUUUUUUGGGGUUUUUUUGGGGAAAGUAUUAUGUUACGCCGUUCGGAUCU: 1.83
UGGCCCUGGUGGCAUGCCGGGAGGAAGAGGUGGCCUCAUGGAUCGUGGUGGUCCCGGUGGAAUGUUCAGAGGUGGCCGUGGUGGAGACAG: 0.538
CUCAAGUCCUGUGCUACACAUCGUAUGUACCGAAUCGGGUGGGUGGGGUGGGGAAAGUAUUAUGUUACGCCGUUCGGAUCUGCACUUCCA: -1.02
UAACUUUAGAGGAGGAUCUGAUGGAUAUGGCAGUGGACGUGGAUUUGGGAAUGGCUAUAAUGGGUAUGGAGGAGGACCUGGAGGUGGCAA: -0.247
GGCAGGAGGAAGAGCGCAGGCGCCGUGAAGAAGAGAUGCGGCGGCAGCAAGAAGAAAUGAUGCGGCGACAGCAGGAAGGAUUCAAGGGAA: 0.142
UCAAGUCCUGUGCUACACAUCGUAUGUACCGAAUCGGCCGGGGCCGGGCCGGGGAAAGUAUUAUGUUACGCCGUUCGGAUCUGCACUUCC: 0.133
UCAAGUCCUGUGCUACACAUCGUAUGUACCGAAUCGGAAAAAGGAGGAAAAAGGAAAGUAUUAUGUUACGCCGUUCGGAUCUGCACUUCC: -0.163

Sample 4 — technique: RNA Bind-n-Seq; molecule type: RNA; matrix: in vitro; tested at: not given; notes: RNA with constant flanks, ends assumed; reference: input RNA pool; direction: higher = stronger binding; measurement: bound/input enrichment
Target: RING finger protein unkempt homolog, zinc fingers 1-6, GST-SBP tag (UNK, Homo sapiens, UniProt Q9C0B0, residues 30-357)
Shared flanks, not repeated: GGGAGUUCUACAGUCCGACGAUC … CAACAGAGGAUUGAGCAUCA
Target sequence (chain): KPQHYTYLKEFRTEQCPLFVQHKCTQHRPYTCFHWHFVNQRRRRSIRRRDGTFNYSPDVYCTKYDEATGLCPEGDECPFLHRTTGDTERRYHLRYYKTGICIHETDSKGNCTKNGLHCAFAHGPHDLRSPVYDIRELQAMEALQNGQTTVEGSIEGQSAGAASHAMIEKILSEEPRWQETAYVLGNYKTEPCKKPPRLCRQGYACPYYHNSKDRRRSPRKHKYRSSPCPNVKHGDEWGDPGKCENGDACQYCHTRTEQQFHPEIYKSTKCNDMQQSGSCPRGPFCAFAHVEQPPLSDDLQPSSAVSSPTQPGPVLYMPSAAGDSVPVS
UCUCCCCCACCUCCUCCUCCUCCAGAAGAUUACGAAGAGGAGGAAGCUGCUGUGGUUGAGUACCGUGAUCCUUAUGCUGAAGAGGACCCACCGUGGGCUCCACGUUCUUACUUGGAAAAG: 0.0885 ratio
UAAGAGAACAGCCAGAUGGUUUAUAUGAAUAAUCUUUAUCUGCAGGAUGGUGGAUUGGUAAAUCCGGAGAAUGUUGUUUGAGAUAUCAAGAUUUAUGUCUGGGAACUAAAAUAUAUAAUG: 0.338 ratio
CCUUGGCAGCCAUUUCUCCCAGCAGUUUUAAAGGAUGAACAUUGGAUUUCAUGCCAUCCCACCGAAAACCUGUUUUAAAAUUUUAGGGAUCUUUACUUGGUCAUACAUGAAAAGUACACU: 0.551 ratio
UGUGAUCAUGCCAAUCCACAGCUUUCAAAUCCAAGUCCGUUUCAGACACUUGGGCUGGAUUCCGUAUUGGAAUGUGUCGCUAGGUACCAACCCAAGCAGCGUUCAAUGUUUACCUUUGUG: 0.124 ratio
ACCAUUUUCGCGGUUCAGGCUUUGUGUGUAGUUCACUUACGGUAUUAAAUUAUUAUUCUGCUCCGCUUAUAAUAAGGAUAAUUGCAUUUAAAGAGGUUACUGAAUGUUACUCUGAAACUU: 0.486 ratio
AAUCUCUGCAAGCUCAUGAAGGAGAUCUUGGACAAGAAGGUUGAAAAGGUGACAAUCUCCAACCGGCUUGUGUCUUCACCCUGCUGCAUUGUGACAAGCACCUAUGGCUGGACAGCCAAC: 0.127 ratio

Sample 5 — technique: RNA Bind-n-Seq; molecule type: RNA; matrix: in vitro; tested at: 365 nM; reference: no-protein control; direction: higher = stronger binding; measurement: RBNS enrichment (R)
Target: RNA binding protein fox-1 homolog 2, RRM domain, GST-SBP tag (RBFOX2, Homo sapiens, UniProt O43251-10, residues 100-194)
Notes: natural RNA segment, single round, ends assumed
Shared flanks, not repeated: GGGAGUUCUACAGUCCGACGAUC … UGGAAUUCUCGGGUGCCAA
Construct (chain): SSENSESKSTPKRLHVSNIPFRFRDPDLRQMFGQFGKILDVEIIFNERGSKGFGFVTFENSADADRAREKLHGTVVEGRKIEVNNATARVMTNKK
AGGAGGAAAAACAGACAAAAACAGCCUCACAGAAGAAUAUGACAGCUGUCCCUGUCACCAAGCUCACAGUUCCUCGCCCUGGGUCUAAGGGGUUGGUUGAGGUGGAAGCC: 0.384
AGUGAGCAGGAACAAGUUAUAUUGCCACUGCUGUGGCAAAUUUUGGUGAACUUUUGGGGUCAUUAUAUCAAUUUUUUCUUUGGAUUCAAAUUGUAAUGUCCCCUGCAUUU: 0.799
AGUCUUGGAUACUGUCAAGCAAACACCAGAGGCUUGGCCAAGUAUAGUUACAAUUACCUAGUUGGGGUUCUUCCUGAUGCAAGAAAUUUUUCACUGUUCGAGGCACAUGG: 0.393
UUAAAUUAAAAUGUGGUAAGUAGGAAGCAAGAACUUAUUCUGUGUUUUUACGCAGCCAUACACUUACUUUAAUCUAACUCAUUCUGUGGCUAGGAUUGAUAUAGGAAUCA: 0.301
UGGAUUGCAAGCUUUAGAACGAAUCAAGCAUUUUCCCUAGCCAGGCAAGGCAUUCGUUUCCUUACUUUGGAAUAGUAUUUAUGUUGAAUUGUAAACCCACAGUUGUAAGC: 0.516
GGGUGGCUUCACUCCGCCCAUUCCAAAGAGGGCUCUCCCUCCACACUGCAGCCGGGAGCCUCUGCUGUCCUUCCCAGCCGCCUCUGCUCCUCGGGCUCAUCACCGGUUCU: 0.38
CCAUGAAUCGUAUUGGUGAUUUUGCUAUAUUGACAGAUUCUCAUCUGUUACACUCUAGGAUCUCUCACAGGUCUGUGGCAAUUACUGUUCAUGAUUUCCUGAAAAAAUAU: 0.34
AUGUGAUUUUGAAUGAGUGUAAAUAAUUUUAAAUAACCUGGCCCUUGGAAUAAAGUUGUUUUCUGUAUUUGCCUGGUGUUGAUUGAGUUUUUAUAUGGGGUCAGUCUUGG: 3.16
GAAAAUAAUUUGUAAAAUGUCAUUCGAAGGUUAAUGAUGAUUGUGAUGUUUAGGAAUGUUUGUCUCAGCCACAGUUCCUUCAUAGCUUUUCCAAAAUGAAUUGGGAAAAA: 2.13
CCCUUCUACCCCACCUGACCUCUGCAAGAGGGGGCAUUGAUACAUCAUCGGGAAAAAACUUUGCUCCAGGCAUCACUGAUUCCCUCUCCCACCCAAGGAGAACGUUUGGU: 0.485
UUUGGGUUUUAACCAAAUAACCGGUCCAGGAGUGAGCAGCUCCGUUCUGUCAGAUGCUACUCCAAAUGUUACCAGAACGAUGACAAAAGGGGAGACGCUCUAUUUUUUCA: 0.33
CUUGGGUUUUUGUACGAAGCUAUUUAAUGAGCCUGUGUCUUGGGGACUCAGCAGGCUGGAGCUUGGGGCCUGGUGGACCAUCACCUGGUGUCUGUAGGUGGACCCGGUCU: 0.83

Repeated from above (sample 1):
2'F-ANA at 1 3 7 11 13 14 15: 78.6 a.u.
2'F-ANA at 1 4 5 7 8 9 10 12 14 15: 50.2 a.u.
2'F-ANA at 2 3 4 5 6 8 11 12 13 14 15: 262 a.u.
2'F-ANA at 1 2 3 4 5 6 8 11 13 14 15: 53.2 a.u.
2'F-ANA at 2 3 4 7 8 13 15: 587 a.u.
2'F-ANA at 4 7 10 11 13 15: 70.9 a.u.
2'F-ANA at 1 4 5 8 9 11 13 14 15: 46.3 a.u.
2'F-ANA at 2 3 5 6 8 9 10 11: 53.3 a.u.
